Published values of several laboratories.
Every numbered part comes from another study and shows a few of its results, in no order. Positions count from the first letter of the parent shown.

Block 1
Target: Transcription factor SOX-2, HMG box (SOX2, Homo sapiens, UniProt P48431, residues 19-118)
Chain of UniProt P48431 (19-118, looked up): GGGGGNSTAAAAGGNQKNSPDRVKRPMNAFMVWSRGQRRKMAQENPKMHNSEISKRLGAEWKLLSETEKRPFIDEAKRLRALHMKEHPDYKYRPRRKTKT
Method: protein-binding microarray
Form: double-stranded DNA, one strand shown
Sample: in vitro
Tested at: not given
Notes: k-mer, scored over probes, only values ≥0.25
Reading: higher = stronger binding
Sequence | E-score
AATATCA | 0.263
ATTTATC | 0.312
AATTCTA | 0.308
AAATAGA | 0.268
AAGCATT | 0.262
CTAACAA | 0.265
AACAAAG | 0.399
TACAAAA | 0.252
CAATTGG | 0.339
AATTTAT | 0.333
CAAACAA | 0.333
AACAAAC | 0.271
CAACAAA | 0.305
AATTGGA | 0.283
AAGAATT | 0.351
ATTCAGC | 0.319
CATTGTA | 0.426
AATTGTG | 0.433
AATTACT | 0.272
AGGACAA | 0.269
TCGTCAA | 0.263
GTTATTA | 0.263
ATATGAA | 0.282
ACAAAGA | 0.331
AAAATGA | 0.254

Block 2
Target: CCNB1, cyclin fold, Cln2 fusion (human)
Method: yeast growth competition, sequencing
Sample: yeast
Notes: weak parent motif
Relative to: not given
Reading: higher = stronger binding
Parent: DBF4B docking peptide (human); LGYLYLLLTQSLW
Change | normalised enrichment score
L1A | 0.502
L4A | 0.154
Y3A | 0.0778
Y5A | 0.635
Q10A | 1.04
L8A | 0.965

Block 3
Target: RNA binding protein fox-1 homolog 2, RRM domain, GST-SBP tag (RBFOX2, Homo sapiens, UniProt O43251-10, residues 100-194)
Method: RNA Bind-n-Seq
Form: RNA
Sample: in vitro
Tested at: 365 nM
Notes: natural RNA segment, single round, ends assumed
Relative to: no-protein control
Reading: higher = stronger binding
Construct (chain): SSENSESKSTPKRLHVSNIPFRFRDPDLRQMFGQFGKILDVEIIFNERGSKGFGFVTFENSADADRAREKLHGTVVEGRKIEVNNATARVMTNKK
Sequence | RBNS enrichment (R)
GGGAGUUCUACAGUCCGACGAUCGCUGCAUUUGUUGUGUUUUUUAGGUUGCAAUUGGUGAAGUUCACACUUUCAUUGUAAUUUUAGCGUGUGGGGUUUUGUCCCUUUUUUGUUGUUGUUAGCUGUGUACAGAAUGGAAUUCUCGGGUGCCAA | 1.37
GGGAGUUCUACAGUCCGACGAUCGAUGACCUCAGAAUGAACUGGAUUGUGGUGUUCACAAGAAAAUCUUAGUUUGUGAUGAUUACAUUGCUUUUUGUUGUCCAGUAGUUUAGUUUGUGUACAUAUAUACACAUUGGAAUUCUCGGGUGCCAA | 0.384
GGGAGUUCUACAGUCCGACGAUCCUCCUCUUUUACUAACUCCACCCUUUCUCAUCUCUGGGACCCAGCAGGGACCUGGAGAGGCCAACAGCCACUGCUACCUUUGUAGUCUUCAAAAUAUUGAACUGCAGGUCUGGAAUUCUCGGGUGCCAA | 0.423
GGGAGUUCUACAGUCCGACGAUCAGGAGUUACACAUACAUUUUAUCCUGUCAUACCUCGAGAUAAAGUGGCAUGUUAGUGAGGAGUUCUGAUAUUAAGCACACACACACAUGCACACAAAUGGACUUCUCUGAUGGAAUUCUCGGGUGCCAA | 0.862
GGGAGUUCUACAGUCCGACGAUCGUUAGGUCAGCCAACUGGUUCUGCCUGUCGCCUUGCCACGGAGGAGGCUUCUAAUUAGCUGGAAAAGAGUAUUUUUCUAAUACGUUGCAAGGAUUAGCCAAAUCUUCUUAUGGAAUUCUCGGGUGCCAA | 0.222
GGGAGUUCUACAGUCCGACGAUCUAGUUACUGGUACUGUUGCCAAGCAAUCUGCUUGGAAUUUGUGGAUCCCUGCUGUUCCCUAAUCCCACCCCCUGCCCUGAGACAGUGAAUGUAGUCCGUGAAGGGAGUGCUGGAAUUCUCGGGUGCCAA | 0.898
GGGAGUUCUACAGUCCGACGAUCCAUUCGCACUGCCUCUGUUGCUUCUGGCUGACCAGACCUCAUGGCCCUGCACUAGACACCCGACCCUUACUAGCCACCAGCCUUAAUUAAACACGGCCUUGGCCUAAGGCUGGAAUUCUCGGGUGCCAA | 0.349
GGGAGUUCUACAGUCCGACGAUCUGAGACAAGAGUGCCUAUGAGAAACCAUUGCACCUGGGAGCACUGCUUGGAGCUAUCUCUACAUUUAGUGAAUUUCUUGUAAAACACUUUGAGAUACAUUGUUUUGGAAAUGGAAUUCUCGGGUGCCAA | 0.647
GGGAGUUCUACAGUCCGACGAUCUGCGGCUGGAGGAUCCUGAGGACAGGAGAGGGGCUUCGGCUGACCAGCCAUAGCACUUACCCAUAGAGACCGCUAGGGUUGGCCGUGCUGUGGUGGGGGAUGGAGGCCUGUGGAAUUCUCGGGUGCCAA | 0.365
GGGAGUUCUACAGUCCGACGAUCAGAAUCCCAUCCUGCACACAUUGGUUGGUGCCCUGGGUGGAAUAGCAACGACACCAACUGAUAAAAGCACAAGAGAAGUGGGGAACAUCUUGAGUCCUGUUGGACGUGAUUGGAAUUCUCGGGUGCCAA | 1.08
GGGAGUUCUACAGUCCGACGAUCUUUAAAGUUCCAGAAUAAUCUCCUUUGACUCCAGGUCUCACAUCCAGGUCAUACUGAUGCAAGAAGUGGGUUCCCAUGGUCUUGGGCAGCUCUGCCCCUGUGGCUUUGUAUGGAAUUCUCGGGUGCCAA | 0.257
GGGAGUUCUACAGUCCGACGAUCUAUUGAGAAAAGGUUGUAGGAAGCCUCACAAGAGACUUUUGACAAUUCUGAGGAACCUUGUGCCCAGUUGUUACAAAGUUUAAGCUUUGAACCUAACCUGCAUCCCAUUUUGGAAUUCUCGGGUGCCAA | 1.12

Block 4
Target: Sal-like protein 4, full length isoform B (SALL4, Homo sapiens, UniProt Q9UJQ4-2, residues 1-616)
Method: universal PBM
Form: double-stranded DNA, one strand shown
Sample: in vitro
Tested at: not given
Notes: 8-mer, flanks averaged, mean of replicates
Reading: higher = stronger binding
Residues (chain): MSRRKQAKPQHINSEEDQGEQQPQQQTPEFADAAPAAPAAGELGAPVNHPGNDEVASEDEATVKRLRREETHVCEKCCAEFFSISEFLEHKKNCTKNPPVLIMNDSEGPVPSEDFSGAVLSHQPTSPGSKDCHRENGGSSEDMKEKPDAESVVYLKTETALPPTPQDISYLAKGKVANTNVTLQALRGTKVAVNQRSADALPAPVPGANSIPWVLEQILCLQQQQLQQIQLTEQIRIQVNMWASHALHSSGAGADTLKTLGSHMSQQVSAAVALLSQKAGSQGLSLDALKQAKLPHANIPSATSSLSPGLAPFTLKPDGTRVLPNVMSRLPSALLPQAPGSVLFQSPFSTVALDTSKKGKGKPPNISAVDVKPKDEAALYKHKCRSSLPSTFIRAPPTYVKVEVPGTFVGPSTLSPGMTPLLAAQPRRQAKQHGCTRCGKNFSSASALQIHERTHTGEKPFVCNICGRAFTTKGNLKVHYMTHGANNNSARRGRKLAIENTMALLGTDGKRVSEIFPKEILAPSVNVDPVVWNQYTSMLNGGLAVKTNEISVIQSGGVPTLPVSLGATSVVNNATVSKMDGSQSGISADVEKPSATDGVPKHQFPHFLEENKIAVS
Sequence | E-score
CACCTATG | -0.073
CACTACCC | -0.179
GCAACCGC | -0.163
CCATAACG | 0.123
ATCCGGTA | -0.185
ATGTCTAC | 0.0614
ATTGCTAA | 0.259
GAGCACTC | -0.194
AAAGGCGT | -0.112
CCGTAAAG | -0.0364
AGCTCCTA | -0.0628
AACGTCCG | -0.251
TCCATACA | 0.149
GATGTCCC | -0.21
TACGTTCA | 0.198
CTGAATTC | -0.0609
CCAAGACC | -0.212
CCGATCTC | -0.278
AAACTGAT | 0.0483
CATTGCGG | -0.152

Block 5
Target: Interferon regulatory factor 7, full length, phosphomimetic (IRF7, Homo sapiens, UniProt Q92985, residues 1-503, S471D/S472D/S475D/S476D/S477D/S483D/S484D/S487D)
Method: protein-binding microarray
Form: double-stranded DNA, one strand shown
Sample: in vitro
Tested at: 2200 nM top
Notes: 60-bp whole probe
Together with: salmon DNA 0.4 mg/ml
Relative to: random background probes
Reading: higher = stronger binding
Shared flanks, not repeated: GCCTAGCAC … GTCTTGATTCGCTTGACGCTGCTG
Construct (chain): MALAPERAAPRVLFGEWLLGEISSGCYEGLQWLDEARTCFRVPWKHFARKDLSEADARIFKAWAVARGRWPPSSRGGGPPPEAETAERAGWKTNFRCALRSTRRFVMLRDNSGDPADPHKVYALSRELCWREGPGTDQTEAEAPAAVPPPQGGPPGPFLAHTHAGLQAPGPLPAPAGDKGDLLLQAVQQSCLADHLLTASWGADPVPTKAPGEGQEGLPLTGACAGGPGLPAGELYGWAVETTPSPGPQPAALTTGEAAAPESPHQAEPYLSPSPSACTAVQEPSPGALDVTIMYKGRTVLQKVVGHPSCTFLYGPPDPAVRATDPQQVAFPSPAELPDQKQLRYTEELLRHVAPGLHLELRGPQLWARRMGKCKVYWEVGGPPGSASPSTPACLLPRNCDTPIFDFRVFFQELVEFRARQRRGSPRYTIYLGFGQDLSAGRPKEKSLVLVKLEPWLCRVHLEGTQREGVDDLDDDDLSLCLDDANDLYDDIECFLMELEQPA
Sequence | fitted relative affinity [z-score]
GACGATATCGGGACTGGATACGTGCTA | 0.0344
CAGAAAATGGAAACTCGTATGGTGCTA | 0.693
TCAGATATGCGGTAAGGGACTGTGCTA | -0.58
GACGGTATCGGGTATAGGGACGTGCTA | -0.201
TTTGCTCTGTGCATAGTTCTGTGCTAG | 0.922
GACGGTATCCTTTTCCTGAGGTGCTAG | 0.859
GACGGACTGCGTCTCCTGACGTGCTAG | 0.0848
GACGGTATCGTCTTTCGGGACGTGCTA | 1.54
GACTGTTCCCTTTTCCTGACGTGCTAG | 2.91
GACGATATCAGATTGGAGACGTGCTAG | 0.0564
CTAATTTTCAATTCCTGAAAGTGCTAG | 2.03
ACCCTTGAGTGGTCCAGAGTGTGCTAG | 0.0701
TTAGGGCTGCTTCTCCTTTAGTGCTAG | -0.108
GACGGAATCGACACTGGGGACGTGCTA | -0.36
TCAGATTTCCATTATTGACTGTGCTAG | 1.46
AACGATTTCAGTCTCGAGACGTGCTAG | 0.906
TCACATTTCACAGTTAAACTGTGCTAG | 1.76
GACGATCTCAGTCTGGAGACGTGCTAG | -0.222
TTAGGTATCCTACTGCTTTAGTGCTAG | 0.63
GACGATCTCAGTATTGAGACGTGCTAG | 0.00341

Repeated from above (block 3):
Sequence | RBNS enrichment (R)
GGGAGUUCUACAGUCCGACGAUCAGGAGUUACACAUACAUUUUAUCCUGUCAUACCUCGAGAUAAAGUGGCAUGUUAGUGAGGAGUUCUGAUAUUAAGCACACACACACAUGCACACAAAUGGACUUCUCUGAUGGAAUUCUCGGGUGCCAA | 0.862
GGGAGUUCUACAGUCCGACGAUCGUUAGGUCAGCCAACUGGUUCUGCCUGUCGCCUUGCCACGGAGGAGGCUUCUAAUUAGCUGGAAAAGAGUAUUUUUCUAAUACGUUGCAAGGAUUAGCCAAAUCUUCUUAUGGAAUUCUCGGGUGCCAA | 0.222
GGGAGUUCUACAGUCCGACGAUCUAGUUACUGGUACUGUUGCCAAGCAAUCUGCUUGGAAUUUGUGGAUCCCUGCUGUUCCCUAAUCCCACCCCCUGCCCUGAGACAGUGAAUGUAGUCCGUGAAGGGAGUGCUGGAAUUCUCGGGUGCCAA | 0.898
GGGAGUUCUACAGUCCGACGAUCCAUUCGCACUGCCUCUGUUGCUUCUGGCUGACCAGACCUCAUGGCCCUGCACUAGACACCCGACCCUUACUAGCCACCAGCCUUAAUUAAACACGGCCUUGGCCUAAGGCUGGAAUUCUCGGGUGCCAA | 0.349
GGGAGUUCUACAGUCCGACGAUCUGAGACAAGAGUGCCUAUGAGAAACCAUUGCACCUGGGAGCACUGCUUGGAGCUAUCUCUACAUUUAGUGAAUUUCUUGUAAAACACUUUGAGAUACAUUGUUUUGGAAAUGGAAUUCUCGGGUGCCAA | 0.647
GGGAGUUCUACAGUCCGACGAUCUGCGGCUGGAGGAUCCUGAGGACAGGAGAGGGGCUUCGGCUGACCAGCCAUAGCACUUACCCAUAGAGACCGCUAGGGUUGGCCGUGCUGUGGUGGGGGAUGGAGGCCUGUGGAAUUCUCGGGUGCCAA | 0.365
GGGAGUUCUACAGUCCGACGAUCAGAAUCCCAUCCUGCACACAUUGGUUGGUGCCCUGGGUGGAAUAGCAACGACACCAACUGAUAAAAGCACAAGAGAAGUGGGGAACAUCUUGAGUCCUGUUGGACGUGAUUGGAAUUCUCGGGUGCCAA | 1.08
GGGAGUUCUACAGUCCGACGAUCUUUAAAGUUCCAGAAUAAUCUCCUUUGACUCCAGGUCUCACAUCCAGGUCAUACUGAUGCAAGAAGUGGGUUCCCAUGGUCUUGGGCAGCUCUGCCCCUGUGGCUUUGUAUGGAAUUCUCGGGUGCCAA | 0.257
